Measured values collected from several papers.
Each line is one published result; not all experiments were run side by side. “And” joins repeats or separate records; there may be more than shown. ± gives the spread as reported.

Under “maximum non-toxic concentration”, `COc1cc(/C=C/C(=O)CC(=O)/C=C/c2ccc(O)c(O)c2)ccc1O` is recorded as 20 µM (MDCK; MTT; 24 h).
`CC(=O)N[C@@H](CO)C(=O)N[C@@H](CC(=O)O)C(=O)N[C@@H](CCCCNC(=O)CCCC[C@@H]1SC[C@@H]2NC(=O)N[C@@H]21)C(=O)N1CCC[C@H]1C(=O)O` gave a cellular uptake of 26 ± 2.7% (A549; flow cytometry; 1 mg/mL, 2 h, serum-free, with: nystatin 5 mg/mL; baseline: untreated).
`CCCCn1cc(C(=O)O)c(=O)c2cc(F)c(Nc3cccc(Cl)c3)c([N+](=O)[O-])c21` gave an IC50 of 152 ± 27.7 µg/mL (K562; cell growth, SRB; 72 h).
The viability of `CC1(C)C=Cc2c(cc(O)c3c(=O)cc(-c4ccccc4)oc23)O1` is reported as 103 ± 1.8% (differentiated SH-SY5Y; MTT; 1 µM, 24 h, retinoic acid differentiated; baseline: control).
For `COC(=O)C1CN1S(=O)(=O)c1ccccc1C` (centres unmarked), the IC50 was 380 ± 10 µM (Balb/c 3T3 fibroblasts; cytotoxicity, neutral red uptake; DMEM with 5% FBS; 24 h).
The viability of `COc1cc2c(c3oc(-c4ccccc4)cc(=O)c13)C=CC(C)(C)O2` is reported as 102 ± 2.6% (differentiated SH-SY5Y; MTT; 0.1 µM; baseline: control).
`CC1CN1c1cc(O)c2nc(N)sc2c1` (centres unmarked) — result for toxicity: “not toxic” (normal CD34+ bone marrow cells; colony formation; up to 12 µM, 10 days).
The LD50 of `CC[C@H](C)[C@H](NC(=O)[C@@H](CCCCN)NC(=O)[C@H](CCCCN)NC(=O)[C@H](Cc1ccccc1)NC(=O)[C@H](CC(C)C)NC(=O)[C@@H](CCCCN)NC(=O)[C@H](Cc1c[nH]c2ccccc12)NC(=O)[C@H](CCCCN)NC(C)=O)C(=O)NCC(=O)N[C@@H](C)C(=O)N[C@H](C(=O)N[C@@H](CC(C)C)C(=O)N[C@H](CCCCN)C(=O)N[C@H](C(=O)N[C@@H](CC(C)C)C(N)=O)C(C)C)C(C)C` is reported as 98 µM (RAW264.7; cell viability, MTT; 1 h, 37 °C).
`O=C(CN1CCCC2=CC3CC(CN4CCCCC34)C21)Nc1ccc(Br)cc1` (centres unmarked) gave a CC50 of greater than 267 µM (Huh-7; cytotoxicity).
The viability of `CC(C)(O)c1cc2c(ccc3c(=O)cc(-c4ccccc4)oc32)o1` is reported as 85.4 ± 1.1% (differentiated SH-SY5Y; MTT; 100 µM; baseline: control).
`CCCCn1cc(C(=O)O)c(=O)c2cc(F)c(Nc3ccccc3Cl)c(N)c21` gave an IC50 of 10 µM and 10.1 µM (T47D; cell growth or viability, SRB).
`CC1OCC2OC(OC3C(N)CC(N)C(O)C3OC3OC(CO)C(OC4OC(CN)C(O)C(O)C4N)C3O)C(N)C(O)C2O1` (centres unmarked): cytotoxicity “not toxic” (NIH 3T3; alamarBlue; concentration not given).
For `CC1(C)C=Cc2c(cc3oc(-c4ccccc4)cc(=O)c3c2O)O1`, the viability was 86.9 ± 5.4% (differentiated SH-SY5Y; MTT; 100 µM; baseline: control).
For `CC(=O)N(O)CCCP(=O)(O)O`, “mean mutant frequency” read 128% (mouse lymphoma L5178Y TK+/- 3.7.2C; TK locus mutation; 25 µg/mL, 4 h, without S9; baseline: negative control).
